Published values pooled from the literature.
Several values in a cell are separate wells, animals, samples, runs or records. Numbers after ± are the reported error.

SMILES = Cc1c(C(=O)O)ccc2c3n(nc12)[C@@H]1[C@H](C3)N(CC2CC2)[C@@]2(C(=O)Nc3cc(Cl)ccc32)[C@H]1c1cccc(Cl)c1F; cell line = DK-MG (MDM2-amplified); test = cell growth, alamarBlue; setting = 120 h; endpoint = GI50; value = 3 nM
SMILES = CCCc1n(Cc2ccc3ccccc3n2)cc[n+]1Cc1ccc2ccccc2c1; cell line = NCI60 NSCLC cell lines; test = cell growth; endpoint = GI50; value = ≤ 3930 nM
SMILES = O=C(/C=C/C=C/C=C/C1CCCCC1)NC1=C[C@@](O)(/C=C/C=C/C=C/C(=O)NC2=C(O)CCC2=O)[C@@H]2O[C@@H]2C1=O; cell line = IGR-1; test = cell growth, CellTiter-Glo; setting = 78 h; endpoint = GI50; value = 12900 nM
SMILES = C[C@H](Nc1ccc2c(c1)OCCn1cc(N3C(=O)OC[C@H]3C(F)F)nc1-2)C(N)=O; cell line = HCC1954; test = resazurin growth rate inhibition; setting = 72 h; endpoint = GR50; value = 12.7 nM
SMILES = CCn1c(=O)/c(=C2\Sc3cc(Cl)ccc3N2C)s/c1=C\c1scc[n+]1Cc1ccccc1.[Cl-]; cell line = human cells; test = plate-normalised; setting = concentration not given, hit retest; scale = baseline: vehicle controls, SDs below control; endpoint = MyBP-C level change; value = 6.94 SD
SMILES = CC/C(=N\NC(=O)NCc1cccc(O)c1)c1ccc(O)c(C)c1O; cell line = SK-OV-3; test = Western blot, refers to: TAZ; setting = 10 µM, 6 h, 3D gellan gum culture, unit not given; scale = baseline: β-actin; endpoint = protein level; value = 2.12 ± 1.02
SMILES = O=C(CCCN1C(=O)c2cccc3cccc(c23)C1=O)NO; cell line = OCI-Ly1; setting = 1 µM, 120 h; endpoint = viability; value = 74.5%
SMILES = C[C@H](CCC(=O)NCCS(=O)(=O)O)[C@H]1CC[C@H]2[C@@H]3CC[C@@H]4C[C@H](O)CC[C@]4(C)[C@H]3CC[C@]12C; cell line = rat PCK cystic cholangiocytes; test = cell counting; setting = 20 µM, 48 h; scale = baseline: untreated; endpoint = proliferation increase; value = 62%
SMILES = Cc1cccc(-c2[nH]c(CNc3ccccc3F)nc2-c2ccc3ncnn3c2)n1; cell line = pomalidomide-resistant MM1.S cells; test = XTT; setting = 2.25 µM; scale = higher = more viable cells; endpoint = XTT absorbance; value = 2.3 E-1 and 1.8 E-1 and 1.6 E-1
SMILES = CCCCCCCC(=O)c1cc(OC)c(OC)c(OC)c1CC(=O)OCC; cell line = COS-7; setting = 10 µM, 24 h, 0.1% DMSO, unit not given; scale = baseline: vehicle control; endpoint = necrotic cells; value = 1.04 ± 0.25
SMILES = CCCCc1nc(Cl)c(CO)n1Cc1ccc(-c2ccccc2-c2nn[nH]n2)cc1; cell line = human PBMC; test = RNA-seq, refers to: TNIP3 mRNA; setting = 10 µg/mL, 24 h; scale = baseline: untreated control; endpoint = log2 fold change; value = 1.94
SMILES = CN(C)C(=O)c1cncc(-c2cnc3[nH]cc(-c4ccccc4C#N)c3c2)c1; cell line = Ba/F3 BCR-ABL T315I; test = cell proliferation; setting = 72 h; endpoint = GI50; value = > 1000 nM
SMILES = CC(C)[C@H](N)C(=O)N1CCC[C@H]1B(O)O; cell line = MV4-11; test = annexin V/PI flow cytometry, refers to: annexin V+ PI-; setting = 2 µM, 24 h; endpoint = early apoptotic cells; value = 0.92%
SMILES = O=C(Nc1nnc2n3c(Cc4ccccc4)n[nH]c3nc(-c3ccc(Cl)cc3)c1-2)c1ccccc1; cell line = 786-0; test = NCI60 SRB; setting = 10 µM; endpoint = growth percent; value = 96.8%
SMILES = CCCC(=O)O; cell line = OCI-Ly1; setting = 0.5 µM, 120 h; endpoint = viability; value = 165%
SMILES = Cc1cc(Nc2ncc(Cl)c(Nc3ccccc3S(=O)(=O)C(C)C)n2)c(OC(C)C)cc1C1CCNCC1; cell line = CLB-GE; test = phosphoproteomics LC-MS/MS, refers to: BCR phosphorylation; setting = 200 nM, 60 min; scale = baseline: untreated; endpoint = log2 fold change; value = -2.21
SMILES = COc1cnc2cccc(N3CCc4c(cc(Cn5ccnc5C)cc4-c4cn(C)nc4C(F)(F)F)C3=O)c2c1; cell line = JHH7; test = cell growth, inhibitor; setting = 120 h; endpoint = EC50; value = > 30000 nM
SMILES = Cc1cc(O)c2c(c1)C(=O)c1cccc(O)c1C2=O; cell line = HepaRG co-cultured with HK-2; test = MTT; setting = 16.67 µM, 48 h; scale = baseline: untreated control; endpoint = cell viability; value = 91.3 ± 8.11%
SMILES = Cn1c(Nc2nc3ccc(C(F)(F)F)cc3s2)nc2cc(C(=O)NCCOCCO)ccc21; cell line = SH-SY5Y; test = RNA-seq, refers to: CD274 mRNA; setting = 5 µM, 5 h; scale = baseline: untreated cells; endpoint = fold change; value = 2.16
SMILES = C[n+]1cc2c3c(ccc2c2ccc4cc5c(cc4c21)OCO5)OCO3; cell line = iPSC-derived cardiomyocytes; test = concentration-response fit; setting = concentration not given; scale = baseline: vehicle; endpoint = fitted bottom MyBP-C level; value = 0%
SMILES = O=[N+]([O-])c1ccc(O)cc1; cell line = human cells; test = reporter gene, agonist, luciferase reporter; scale = baseline: positive control; endpoint = fitted curve top; value = 0%
SMILES = COc1cc2ncnc(Nc3ccc(Oc4ccccc4)cc3C)c2cc1OC.O=C(O)C(F)(F)F; cell line = LoVo (KRAS G13D); test = cell viability, resazurin; setting = 0.3 µM, 72 h, with: trametinib 0 nM; scale = baseline: DMSO; endpoint = average fractional effect; value = -0.122%
SMILES = C=C1C(=O)O[C@@H](CCC)[C@@H]1C(=O)O (racemic); cell line = OCI-Ly1; setting = 0.1 µM, 120 h; endpoint = viability; value = 185%
SMILES = CCn1c2ccc(CNCCOCCOCCOCCC(=O)NCCOc3ccc(CCc4nc5cc(-c6c(C)noc6C)ccc5n4CCN4CCOCC4)cc3F)cc2c2ccc(-c3cc(C)cs3)cc21; cell line = U2OS p53 wild type; test = cell viability; setting = 10 µM, 72 h, highest concentration tested; endpoint = inhibition; value = 30 to 40%
SMILES = CCc1cc2c(N3CCN(c4nncs4)CC3)ncnc2s1; cell line = OCI-Ly1; setting = 0.5 µM, 120 h; endpoint = viability; value = 88.8%
SMILES = C#C[C@@]1(O)[C@@H](CO)O[C@@H](n2cc(Cl)c3c(N)ncnc32)[C@@H]1O; cell line = 786-0; test = cell growth, SRB; endpoint = TGI; value = 1340 nM and 1310 nM
SMILES = CC(C)NCCCn1c(Sc2cc3c(cc2I)OCO3)nc2c(N)ncnc21; cell line = human cells; test = plate-normalised; setting = concentration not given, hit retest; scale = baseline: vehicle controls, SDs below control; endpoint = MyBP-C level change; value = 6.28 SD
SMILES = CC(C)(C)OC(=O)Nc1ccc(-c2cc(C(=O)NCCCCCCC(=O)NO)no2)cc1; cell line = OCI-Ly1; setting = 0.5 µM, 120 h; endpoint = viability; value = 35%
SMILES = CCCCN1C[C@H](O)[C@@H](O)[C@@H](O)[C@H]1CO; cell line = sample BB patient fibroblasts; test = GlcCer level lowering, LC-MS/MS, refers to: GlcCer d18:1/24:1; setting = 216 h; endpoint = IC50; value = 34700 nM
SMILES = C#CCCC1(CCC(=O)N2[C@@H](c3ccc4c(c3)OCO4)c3[nH]c4ccccc4c3C[C@H]2C(=O)N2CCOCC2)N=N1; cell line = HeLa stably expressing GFP-LC3; setting = concentration not given, 4 h; endpoint = LC3 puncta formation; value = inactive
SMILES = CCc1cnc(N2CCC(c3nc(COc4ccc(-n5cnnn5)cc4)cs3)CC2)nc1; cell line = HEK-293T; test = RNA-seq GSEA, refers to: HALLMARK_NOTCH_SIGNALING; setting = concentration not given; scale = direction not given; endpoint = normalized enrichment score; value = -1.28
SMILES = C=C1C(=O)O[C@H]2[C@H]1CC/C(C)=C/CC[C@@]1(C)O[C@@H]21; cell line = iPSC-derived cardiomyocytes; test = concentration-response fit; setting = concentration not given; scale = baseline: vehicle; endpoint = fitted bottom MyBP-C level; value = 0%
SMILES = COc1cc(/C=C/C(=O)N2CCC=CC2=O)cc(OC)c1OC; cell line = MDA-MB-468; test = quantitative RT-PCR, refers to: PDK1; setting = 30 µM, 8 h; scale = baseline: untreated cells; endpoint = mRNA level; value = 97.2 ± 6.4%
SMILES = C[C@H](NC(=O)C(=O)Nc1ccccc1C(C)(C)C)C(=O)N[C@@H](CC(=O)O)C(=O)COc1c(F)c(F)cc(F)c1F; cell line = THP-1 GSDMD knockout, LPS-primed; test = inhibitor; setting = 25 µM, 2 h, with: nigericin 6.25 µM; endpoint = LDH release; value = 20.5% and 37% and 19.3%
SMILES = Cn1cc(-c2ccc(-c3cncc(Cl)c3N3CCC4(CCNC4=O)CC3)cc2)cn1; cell line = COLO 205; test = gene expression, microarray, refers to: ITPR1 mRNA; setting = concentration not given, 6 h; scale = baseline: untreated cells; endpoint = log2 fold change; value = 2.31
SMILES = C[C@H]1[C@H](C)CC[C@]2(C)CC[C@]3(C)C(=CC(=O)[C@@H]4[C@@]5(C)CC[C@@H](O)[C@](C)(C(=O)NCc6cn(-c7cccc(Br)c7)nn6)[C@@H]5CC[C@]43C)[C@H]12; cell line = human PBMCs; test = flow cytometry; setting = 10 µM; scale = baseline: CD8- T cells; endpoint = TIGIT positive cells; value = 9.88%
SMILES = COc1c(O)c(C)cc2c1C(=O)c1c(ccc(O)c1O)C2=O; cell line = HepaRG co-cultured with HK-2; test = MTT; setting = 266.67 µM, 24 h; scale = baseline: untreated control; endpoint = cell viability; value = 87.8 ± 12.5%
SMILES = COc1ccc(Cn2ccc3ccc(C(=O)NO)cc32)cc1; cell line = OCI-Ly1; setting = 1 µM, 120 h; endpoint = viability; value = 89.7%
SMILES = CCCN1CCN(c2ccc3[nH]c(-c4ccc5[nH]c(-c6ccc(OCC)c(OCC)c6)nc5c4)nc3c2)CC1; cell line = 786-0; test = cell growth, NCI-60 SRB; setting = 10 µM, 48 h; endpoint = growth percent; value = -89%

Some of these lines once more:
SMILES = Cc1cc(O)c2c(c1)C(=O)c1cccc(O)c1C2=O; cell line = HepaRG co-cultured with HK-2; test = MTT; setting = 16.67 µM, 48 h; scale = baseline: untreated control; endpoint = cell viability; value = 91.3 ± 8.11%
SMILES = Cn1c(Nc2nc3ccc(C(F)(F)F)cc3s2)nc2cc(C(=O)NCCOCCO)ccc21; cell line = SH-SY5Y; test = RNA-seq, refers to: CD274 mRNA; setting = 5 µM, 5 h; scale = baseline: untreated cells; endpoint = fold change; value = 2.16
SMILES = C[n+]1cc2c3c(ccc2c2ccc4cc5c(cc4c21)OCO5)OCO3; cell line = iPSC-derived cardiomyocytes; test = concentration-response fit; setting = concentration not given; scale = baseline: vehicle; endpoint = fitted bottom MyBP-C level; value = 0%
SMILES = O=[N+]([O-])c1ccc(O)cc1; cell line = human cells; test = reporter gene, agonist, luciferase reporter; scale = baseline: positive control; endpoint = fitted curve top; value = 0%
SMILES = COc1cc2ncnc(Nc3ccc(Oc4ccccc4)cc3C)c2cc1OC.O=C(O)C(F)(F)F; cell line = LoVo (KRAS G13D); test = cell viability, resazurin; setting = 0.3 µM, 72 h, with: trametinib 0 nM; scale = baseline: DMSO; endpoint = average fractional effect; value = -0.122%
